Experimental data collected from several papers.
Lines come from different studies, so protocols differ. Numbers after ± are the reported error. Values after ≈ are worked out from the molar mass of the structure shown.
Organism: Candida albicans

O=c1c2cc(Cl)ccc2[nH]c(=S)n1Cc1cccnc1
MIC90: > 100 µM

COc1ccc(/C=C2\NC(=S)N(c3ccccc3)C2=O)c(OC)c1
inhibition zone diameter (ATCC 10231; concentration not given): 11 ± 0.5 mm

Fc1cccc(N/N=C/c2ccc(-c3cccc(/C=N/Nc4cccc(F)c4)c3)cc2)c1
selectivity index (ATCC 64124 resistant; relative to: mammalian CC50 over MIC): < 0.4

COc1ccc(N2N=C(C(C)=O)SC2=C(C#N)C(=O)c2ccc(Nc3cnccn3)cc2)cc1
inhibition zone diameter (ATCC 10231; concentration not given): 28 mm

CC(C)c1ccc(/C=C2\N=C(SCc3ccc([N+](=O)[O-])cc3)N(c3ccccc3)C2=O)cc1
inhibition zone diameter (ATCC 10231; concentration not given): 11 ± 0.47 mm

OC(Cn1cncn1)(Cn1cncn1)c1ccc(F)cc1F
MIC (broth microdilution; 321; 24 h, compound alone): 1 µg/mL

O=C1/C(=C/c2ccc3ccccc3c2O)NC(=S)N1c1ccccc1
inhibition zone diameter (ATCC 10231; concentration not given): 25 ± 0.82 mm

CC(=O)ON=C1C=CC(=C(C#N)c2ccccc2)C=C1
effective concentration (mature biofilm disaggregation, crystal violet; at MIC/4): 0.5 µg/mL

OC(Cn1cncn1)(Cn1cncn1)c1ccc(F)cc1F
MIC (SP3902, RPMI MOPS; 48 h, 37 °C): 16 µM

CC(C)c1ccc(/C=C2\N/C(=N/c3ccccc3)N(N)C2=O)cc1
inhibition zone diameter (ATCC 10231; concentration not given): 11 ± 0.47 mm

C[C@@H]1[C@H](O)[C@@H](C)/C=C/C=C/C=C/C=C/C=C/C=C/C=C/[C@H](O[C@@H]2O[C@H](C)[C@@H](O)[C@H](N)[C@@H]2O)C[C@@H]2O[C@](O)(C[C@@H](O)C[C@@H](O)[C@H](O)CC[C@@H](O)C[C@@H](O)CC(=O)O[C@H]1C)C[C@H](O)[C@H]2C(=O)O
MIC (SP3902, RPMI MOPS; 48 h, 37 °C): 0.5 µM

C(=N\Nc1ccccc1)/c1ccc(-c2ccc(/C=N/Nc3ccccc3)cc2)cc1
selectivity index (ATCC 64124 resistant; relative to: mammalian CC50 over MIC): < 0.6

OC(Cn1cncn1)(Cn1cncn1)c1ccc(F)cc1F
MIC50 (EUCAST; 48 h): 0.4 µM (≈ 0.123 µg/mL)

C[C@@H]1[C@H](O)[C@@H](C)/C=C/C=C/C=C/C=C/C=C/C=C/C=C/[C@H](O[C@@H]2O[C@H](C)[C@@H](O)[C@H](N)[C@@H]2O)C[C@@H]2O[C@](O)(C[C@@H](O)C[C@@H](O)[C@H](O)CC[C@@H](O)C[C@@H](O)CC(=O)O[C@H]1C)C[C@H](O)[C@H]2C(=O)O
amount bound to cells (LC-MS; 63 µg/mL, 1 h, 35 °C): 8.7 pg

O=C1/C(=C/c2ccc(O)cc2O)NC(=S)N1c1ccccc1
inhibition zone diameter (ATCC 10231; concentration not given): 12 ± 0.32 mm

Fc1ccccc1N/N=C/c1ccc(-c2cccc(/C=N/Nc3ccccc3F)c2)cc1
selectivity index (ATCC MYA-2876 susceptible; relative to: mammalian CC50 over MIC): < 0.5

CCCCCOc1ccc(-c2ccc(-c3ccc(C(=O)N[C@H]4C[C@@H](O)[C@@H](OCC[N+](C)(C)C)NC(=O)[C@@H]5[C@@H](O)[C@@H](C)CN5C(=O)[C@H]([C@@H](C)O)NC(=O)[C@H]([C@H](O)[C@@H](O)c5ccc(O)cc5)NC(=O)[C@@H]5C[C@@H](O)CN5C(=O)[C@H]([C@@H](C)O)NC4=O)cc3)cc2)cc1
MIC (CLSI broth microdilution; K-1): 0.008 µg/mL

OC(Cn1cncn1)(Cn1cncn1)c1ccc(F)cc1F
viable cell reduction (ATCC 60193; 1 × MIC, 12 h): 40 to 45%
